Results of several laboratories.
Numbered parts are unrelated; each lists some results of a single study. Changes are numbered by the printed parent chain.

Set 1
Target: Centromere-binding protein 1, full length, N-terminal tag (CBF1, Saccharomyces cerevisiae, UniProt P17106, residues 1-351)
UniProt P17106, sequence (whole entry, looked up): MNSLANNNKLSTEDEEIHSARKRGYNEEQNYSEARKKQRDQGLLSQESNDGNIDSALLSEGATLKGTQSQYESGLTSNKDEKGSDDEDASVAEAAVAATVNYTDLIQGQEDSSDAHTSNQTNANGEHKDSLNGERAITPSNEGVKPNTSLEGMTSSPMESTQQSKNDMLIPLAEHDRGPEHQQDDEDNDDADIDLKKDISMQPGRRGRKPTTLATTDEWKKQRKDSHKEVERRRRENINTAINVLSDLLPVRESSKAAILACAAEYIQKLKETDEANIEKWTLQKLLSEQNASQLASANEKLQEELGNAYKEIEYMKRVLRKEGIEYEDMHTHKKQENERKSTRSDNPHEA
Technique: protein-binding microarray
Molecule type: double-stranded DNA, one strand shown
Sample: in vitro
Tested at: 0.8 µM
Notes: whole 60-bp probe, no competitor
Direction: higher = stronger binding
Shared flanks, not repeated: … GTCTTGATTCGCTTGACGCTGCTG
Strand	fluorescence intensity
CCTAACTACTATAATCAGACTAAATAGCTTCGTACA	561 a.u.
GAACCAGATTGCCCTCACGTGAGGCTTCAGTAATAG	6430 a.u.
GAAAAATGAGAAAAAGTCATCAGGATAAAAGAATAG	543 a.u.
CTAGAGCACTACCATGACGTCATTAATGTAAAATTC	504 a.u.
GAAGTTTGAAAACACCACGCAGCATTACGTCGTTAG	556 a.u.
CTAAGCACAAACCGTCACATGCCGTTCCGAAATTTC	1470 a.u.
CTATTTTTTGTCCACCACCAAAATGTCAATTTTTTC	576 a.u.
GAACAGGAAATATTTCACGTGACTTACAAACAGTAG	23100 a.u.
CTACCGCAGAGTGATTGGGTCACAGGAAATAGCTTC	535 a.u.
CTAGCAAGAACCCTTCACATGTCACACCTGCACTTC	776 a.u.
CTAACTGATGAGTTCCACCTGCTTATTGTTTATTTC	536 a.u.
CTATAAGGTTGTTATCTCGTGGACCACAACGCATTC	549 a.u.
CTAGATGACTCTATAATCGTGGTCGGAACGTGCTTC	616 a.u.
CTACTTCAATGTCATCACGTACTTAATTATGTTTTC	770 a.u.
CTAAGATCAAATCGAAACGGTCACAAACTTATGTTC	532 a.u.
CTACGATTGGTTTATCACGTAAGTTTCTTATGATTC	504 a.u.
CTATAGCTTAACTGGCACATCATGAAAAGGATGTTC	692 a.u.
GAACCTTTTCTCAGTCTCCTGTTCGCTTGTCTGTAG	574 a.u.
TGTACGAAGCTATTTCATGTCACTATAGTAGTTAGG	542 a.u.

Set 2
Target: CCND2, cyclin fold, Cln2 fusion (human)
Technique: yeast growth competition, sequencing
Sample: yeast
Notes: weak parent motif
Reference: not given
Direction: higher = stronger binding
Parent: RB1 docking peptide (human); PKPLKKLRFDIEG; partner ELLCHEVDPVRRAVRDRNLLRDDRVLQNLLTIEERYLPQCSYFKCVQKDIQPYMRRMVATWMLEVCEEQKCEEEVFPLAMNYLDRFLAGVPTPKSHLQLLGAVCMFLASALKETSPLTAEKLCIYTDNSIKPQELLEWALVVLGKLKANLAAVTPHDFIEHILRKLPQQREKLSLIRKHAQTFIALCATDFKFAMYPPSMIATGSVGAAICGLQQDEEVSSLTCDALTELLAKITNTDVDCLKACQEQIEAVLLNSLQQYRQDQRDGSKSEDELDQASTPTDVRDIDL
Substitution	normalised enrichment score
D10A	0.374
P3D	0.42
P3V	-0.152
K6N	-0.137
L4G	0.442
E12F	0.221
K2Y	0.457
L4E	0.234
K2A	0.147
P1V	0.237
R8E	0.23
K6H	0.54
F9M	0.522
P1R	0.00515
K5H	0.228
K2W	0.0893

Set 3
Target: UBE2U UBC core domain (UniProt Q5VVX9)
Technique: yeast two-hybrid
Sample: yeast
Notes: mostly zero background
Reference: not given
Direction: higher = stronger interaction
B1: RNF24 RING domain (UniProt Q9Y225); chain KVKELNLHELCAVCLEDFKPRDELGICPCKHAFHRKCLIKWLEVRKVCPLCNMPVLQLAQLH
B2: RNF135 RING domain (UniProt Q8IUD6); chain PVWLAEDDLGCIICQGLLDWPATLPCGHSFCRHCLEALWGARDARRWACPTCRQGAAQQPHLR
B3: TRIM22 RING domain (UniProt Q8IYM9); chain KEVKMSPQEGQKRDVCEHHGKKLQIFCKEDGKVICWVCELSQEHQGHQTFRINEVVKECQEK
B4: DTX1 RING domain (UniProt Q86Y01); chain QKVKNPPDEDCTICMERLVTASGYEGVLRHKGVRPELVGRLGRCGHMYHLLCLVAMYSNGNKDGSLQCPTCKAIYGEKTGTQ
B5: Ltn1 RING domain (UniProt Q6A009); chain VDKRFEGVEDCMICFSVIHGFNYSLPKKACRTCKKKFHSACLYKWFTSSNKSTCPLCRETFF
B6: RNF181 RING domain (UniProt Q9P0P0); chain VIRGSQAELKCPVCLLEFEEEETAIEMPCHHLFHSSCILPWLSKTNSCPLCRYELPTDDDTY
Construct (chain): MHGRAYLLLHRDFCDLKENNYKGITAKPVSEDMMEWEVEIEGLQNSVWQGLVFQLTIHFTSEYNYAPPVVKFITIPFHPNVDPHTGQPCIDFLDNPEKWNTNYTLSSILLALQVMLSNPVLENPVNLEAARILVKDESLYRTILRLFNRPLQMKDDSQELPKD
Sequence	lacZ reporter activity
B1 (RNF24 RING domain)	0
B2 (RNF135 RING domain)	12000
B3 (TRIM22 RING domain)	0
B4 (DTX1 RING domain)	6700
ALDRLEKLLRCSRCTNILREPVCLGGCEHIFCSNCVSDCIGTGCPVCYTPAWIQDLKI (BARD1 RING domain (UniProt Q99728))	13600
B5 (Ltn1 RING domain)	0
B6 (RNF181 RING domain)	16100
NTAPSLTVPECAICLQTCVHPVSLPCKHVFCYLCVKGASWLGKRCALCRQEIPEDFLDK (RNF146 RING domain (UniProt Q9NTX7))	3320

Set 4
Target: ABI1, truncated, D143A, DHFR fusion (Arabidopsis thaliana)
Technique: DHFR PCA, deep sequencing
Sample: yeast
Notes: methotrexate growth selection, single substitutions
With: (+)-ABA 0.032 µM
Reference: wild-type fitted maximum
Direction: higher = stronger binding
Parent: PYL1, truncated, DHFR fusion (Arabidopsis thaliana); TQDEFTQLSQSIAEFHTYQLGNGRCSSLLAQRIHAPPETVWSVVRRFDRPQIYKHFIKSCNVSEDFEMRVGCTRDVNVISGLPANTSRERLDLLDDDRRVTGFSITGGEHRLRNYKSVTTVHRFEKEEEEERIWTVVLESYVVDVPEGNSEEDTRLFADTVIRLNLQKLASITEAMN; partner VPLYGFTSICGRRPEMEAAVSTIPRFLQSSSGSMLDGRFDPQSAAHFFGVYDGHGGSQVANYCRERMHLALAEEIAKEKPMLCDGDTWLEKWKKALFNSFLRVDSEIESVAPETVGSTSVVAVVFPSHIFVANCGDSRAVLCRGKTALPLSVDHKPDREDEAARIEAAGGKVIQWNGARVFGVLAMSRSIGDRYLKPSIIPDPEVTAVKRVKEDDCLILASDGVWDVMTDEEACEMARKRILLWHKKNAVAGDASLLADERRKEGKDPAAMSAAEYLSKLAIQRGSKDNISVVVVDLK
Substitution	relative binding score [%]
G21S	26.8
N177T	36
V136L	16
L93A	5.07
D75C	9.25
F103V	0.358
G23I	2.31
D95K	-1.07
G148I	-13.6
L166G	3.05
Q51T	-11.2
E125F	27.8
I12W	7.79
Q31R	5.97
E131I	20.9
L138Q	1.24
G71Y	-1.49

For quick reference, copied from above (set 1):
Strand	fluorescence intensity
CTATAGCTTAACTGGCACATCATGAAAAGGATGTTC	692 a.u.
CTAGCAAGAACCCTTCACATGTCACACCTGCACTTC	776 a.u.
CCTAACTACTATAATCAGACTAAATAGCTTCGTACA	561 a.u.
CTACTTCAATGTCATCACGTACTTAATTATGTTTTC	770 a.u.
GAACCTTTTCTCAGTCTCCTGTTCGCTTGTCTGTAG	574 a.u.
CTAAGATCAAATCGAAACGGTCACAAACTTATGTTC	532 a.u.
CTATTTTTTGTCCACCACCAAAATGTCAATTTTTTC	576 a.u.
CTAGAGCACTACCATGACGTCATTAATGTAAAATTC	504 a.u.
